Results of several laboratories.
Protocols differ between the studies behind these lines. ± gives the spread as reported.

[11CH3]c1ccc2nc(C3CCC3)n(-c3ccc4[nH]ncc4c3)c2n1 — absorbed dose (extrapolated from mouse biodistribution; human male, osteogenic cells): 2.8 µSv/MBq
CC12CC3CC(C)(C1)CC(NC(=O)Nc1ccc(C(=O)N4CCC[C@H](C(N)=O)C4)cc1F)(C3)C2 — unbound fraction (equilibrium dialysis; Sprague-Dawley rat, plasma): 0.114
C=C(c1cc(F)c(C(=O)O)c(F)c1)c1cc2c(cc1C)C(C)(C)CCC2(C)C — HDL level (Sprague-Dawley rat, male, plasma; oral, 100 mg/kg, 9 h, sesame oil vehicle): 61 ± 3.8 mg/dL
Cc1cccc(-c2cccc(C)n2)n1.Cc1cccc(-c2cccc(C)n2)n1.[Cl-].[Cl-].[Ru+2].c1ccc(-c2ccnc3c2ccc2c(-c4ccccc4)ccnc23)cc1 — release from nanoassemblies (phosphate buffer with NaCl; pH 7.4, 37 °C, photoactivated, dialysis): 55.9%
COc1ccc2nnn(C(=O)N3COCC3(C)C)c2c1 — compound remaining (mouse liver microsomes; 50 µM, 1 h): 0%
C#CCOc1ccc(/C=C2\SC(=O)N(CC(=O)NCc3ccccc3)C2=O)cc1 — Kirkwood-Buff integral G1,3 (inverse Kirkwood-Buff integrals; binary solvent mixture; 298.15 K, mole fraction x1 0.70): -260 cm³/mol
COc1ccc(/C=C/c2ccc(-c3ccc(C)cn3)nc2)cc1 — fluorescence quantum yield (dioxane; added: quinine bisulfate reference): 0.49
Cc1ccc(OCC(=O)N(Cc2cccs2)c2ccn[nH]2)cc1 — AUC(0-t) (male beagle dog, plasma; oral, 100 mg/kg, single dose): 704 ng·h/mL
C1=C(c2cc3c(Nc4ccc5scnc5c4)ncnc3s2)CCSC1 — concentration (BALB/c mouse, plasma; oral, 10 mg/kg, 30 min): 8.48 ng/mL
CCCC[C@H](NC(=O)CNC(=O)CNC(=O)CN1CCN(CC(=O)O)CCN(CC(=O)O)CC1)C(=O)N[C@H]1CC(=O)NCCCC[C@@H](C(N)=O)NC(=O)[C@H](Cc2c[nH]c3ccccc23)NC(=O)[C@H](CCCNC(=N)N)NC(=O)[C@@H](Cc2ccccc2)NC(=O)[C@H](Cc2c[nH]cn2)NC1=O [gallium-67 labelled] — tumour to tissue ratio (female C57 mice, B16/F1 melanoma; intravenous, 0.037 MBq, 0.5 h; reference: tumour over liver): 16.1
OC1(C(F)(F)F)CCN(c2nc(Nc3ccnc(C(F)(F)F)c3)nc(-c3cccc(C(F)(F)F)n3)n2)C1 (stereo not drawn) — central nervous system effect (Sprague-Dawley rat; oral, up to 50 mg/kg, single dose): no effect
CC(C)(O)c1ncc([S@](N)(=O)=NC(=O)Nc2c3c(cc4c2CCC4)CCC3)s1 — AUC(0-last)/dose (healthy human, fasted; oral, 100 mg single dose, capsule formulation): 722 ng·h/mL/mg
CC(C)C[C@@H](NC(=O)[C@H](NC(=O)[C@H]1CCCN1)[C@H](C)O)C(=O)N[C@H](Cc1c[nH]cn1)C(=O)N[C@@H](C(=O)N[C@H](Cc1c[nH]cn1)C(=O)N[C@H](CC(N)=O)C(=O)N[C@H](CCCNC(=N)N)C(=O)N[C@H](CCCNC(=N)N)C(=O)N[C@H](CCCNC(=N)N)C(=O)N[C@H](CCCNC(=N)N)C(=O)N[C@H](CCCNC(=N)N)C(N)=O)[C@H](C)O — AUC(0-inf) (beagle dog, plasma; oral, 50 mg/kg, single dose): 26000 ng·h/mL
NC(=O)c1ccc(C(=O)NOCc2ccc(Sc3cccc(Cl)c3)c(C(F)(F)F)c2)cc1 — half-life (male ICR mouse, plasma; intravenous, 10 mg/kg): 16.8 min
CN(C)c1ccc2c(-c3cc(C(=O)N4CCN(CCCOc5ccc6nccc(C(=O)NCC(=O)N7CC(F)(F)C[C@H]7C#N)c6c5)CC4)ccc3C(=O)[O-])c3ccc(=[N+](C)C)cc-3oc2c1 — half-life fast phase (intravital imaging; mouse, blood; intravenous, 100 µg): 1.9 min
